Measurements gathered from unrelated publications.
Each line is one published result; not all experiments were run side by side.
Target: Cholinesterase (BCHE, Homo sapiens, UniProt P06276)
Chain of UniProt P06276 (whole entry, looked up): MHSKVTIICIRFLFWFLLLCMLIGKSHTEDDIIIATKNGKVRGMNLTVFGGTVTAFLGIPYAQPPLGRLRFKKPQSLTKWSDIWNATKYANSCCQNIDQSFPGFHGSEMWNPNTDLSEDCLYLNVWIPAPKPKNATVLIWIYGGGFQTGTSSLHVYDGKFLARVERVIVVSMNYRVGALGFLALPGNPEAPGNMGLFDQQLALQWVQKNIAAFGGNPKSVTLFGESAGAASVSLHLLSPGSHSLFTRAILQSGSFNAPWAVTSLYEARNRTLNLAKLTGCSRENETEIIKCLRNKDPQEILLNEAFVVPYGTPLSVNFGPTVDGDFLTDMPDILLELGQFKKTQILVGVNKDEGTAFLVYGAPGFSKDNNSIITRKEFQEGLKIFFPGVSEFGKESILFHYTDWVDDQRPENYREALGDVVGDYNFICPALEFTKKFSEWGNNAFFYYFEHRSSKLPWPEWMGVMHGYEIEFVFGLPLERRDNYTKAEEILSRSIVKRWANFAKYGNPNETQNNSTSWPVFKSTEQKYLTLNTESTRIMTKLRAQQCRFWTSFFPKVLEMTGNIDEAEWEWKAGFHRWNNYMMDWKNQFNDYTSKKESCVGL
Observed: enzyme activity
Action: inhibitor

NNC(=O)c1ccc(-n2nc(-c3ccccc3O)nc2-c2ccccc2O)cc1 — IC50 (Ellman): 0.094 µM
COc1cc2c(cc1OC)C(=O)/C(=C\c1ccc(Cl)cc1)C2 — IC50 (Ellman): > 1000 µM
CN1c2ccc(OC(=O)Nc3ccccc3)cc2[C@@]2(C)CCNC12 (single isomer, unassigned; (+)) — IC50 (Ellman; pH 8, with preincubation): > 10 µM
COc1cc2c(cc1OC)C(=O)C(=Cc1ccc(N3CCN(C)CC3)cc1)C2 — IC50 (Ellman): 126 µM
COc1cc2c(c3oc(-c4ccccc4)cc(=O)c13)C=CC(C)(C)O2 — IC50 (Ellman): 8.27 µM
COc1cc2c(cc1OC)C(=O)/C(=C\c1ccc(N3CCOCC3)cc1)C2 — IC50 (Ellman): 631 µM
COc1cc(/C=C/C(=O)CC(=O)/C=C/c2ccc(OC(=O)CCc3c[nH]c4ccccc34)c(OC)c2)ccc1OC(=O)CCc1c[nH]c2ccccc12 — IC50: 60.7 µM
S=C(NCc1ccccn1)NCc1ccccn1 — IC50 (Ellman): 317 µM
Cc1ccccc1C[n+]1cccc(CNC(=O)c2ccc(CN3C(=O)c4ccccc4C3=O)cc2)c1 — IC50 (Ellman): 0.2 µM
COc1cc(/C=N\N=C(\C)c2ccc(OCc3ccc(Br)cc3)cc2)ccc1O — IC50: 29.2 µM
COc1ccc(-c2coc3cc(OCCN4CCCCC4)ccc3c2=O)cc1 — IC50 (Ellman): 5.75 µM
COc1c(C(=O)/C=C/c2ccccc2)ccc2occc12 — IC50 (Ellman): 58.8 µM
Nn1c(-c2ccc(-n3nc(-c4ccccc4O)nc3-c3ccccc3O)cc2)n[nH]c1=S — IC50 (Ellman): 0.18 µM
COc1c(C(=O)/C=C(\O)c2ccccc2)ccc2c1C=CC(C)(C)O2 — IC50 (Ellman): > 200 µM
O=C(O)CCCC(=O)O — IC50 (Ellman): 931 µM
N#Cc1ccc(C2=Nn3c(nnc3-c3ccc(-n4nc(-c5ccccc5O)nc4-c4ccccc4O)cc3)SC2)cc1 — IC50 (Ellman): 0.28 µM
COc1cc2c(cc1OC)C(=O)/C(=C\c1ccc(-n3cccn3)cc1)C2 — IC50 (Ellman): 398 µM
C[C@]12CCNC1Nc1ccc(OC(=O)Nc3ccccc3)cc12 (single isomer, unassigned; (+)) — IC50 (Ellman; pH 8, with preincubation): > 10 µM
Oc1ccccc1C1=Nn2c(nnc2-c2ccc(-n3nc(-c4ccccc4O)nc3-c3ccccc3O)cc2)SC1 — IC50 (Ellman): 0.47 µM
CC12CC(c3ccoc3)OC(=O)C1(O)CCC1(C)C2C2OC(=O)C1(O)C1OC21 (centres unmarked) — IC50 (Ellman): 813 µM
O=C(NCc1ccc[n+](Cc2ccccc2Cl)c1)c1ccc(CN2C(=O)c3ccccc3C2=O)cc1 — IC50 (Ellman): 4.34 µM
COc1ccc(C2=Nn3c(nnc3-c3ccc(-n4nc(-c5ccccc5O)nc4-c4ccccc4O)cc3)SC2)cc1 — IC50 (Ellman): 0.13 µM
O=C(O)/C=C/c1ccc(O)cc1 — IC50 (Ellman): 487 µM
COc1ccc2c(=O)c(OC)c(-c3ccc(OC)c(OC)c3)oc2c1 — IC50 (Ellman): > 200 µM
Cc1ccc(C[n+]2cccc(CNC(=O)c3ccc(CN4C(=O)c5ccccc5C4=O)cc3)c2)cc1 — IC50 (Ellman): 2.57 µM
COc1cc2c(cc1OC)C(=O)/C(=C\c1ccc(N3CCCC3)cc1)C2 — IC50 (Ellman): 501 µM
COc1c2c(cc3oc(-c4ccccc4)cc(=O)c13)OC(C)(C)C=C2 — IC50 (Ellman): 4.95 µM
COc1cc2c(cc1OC)C(=O)C(=Cc1ccc(N3CC[N+](C)(C)CC3)cc1)C2 — IC50 (Ellman): 4 µM
CC1(C)C=Cc2c(cc3oc(-c4ccccc4)cc(=O)c3c2O)O1 — IC50 (Ellman): 4.01 µM

Repeated from above:
COc1c(C(=O)/C=C(\O)c2ccccc2)ccc2c1C=CC(C)(C)O2 — IC50 (Ellman): > 200 µM
O=C(O)CCCC(=O)O — IC50 (Ellman): 931 µM
N#Cc1ccc(C2=Nn3c(nnc3-c3ccc(-n4nc(-c5ccccc5O)nc4-c4ccccc4O)cc3)SC2)cc1 — IC50 (Ellman): 0.28 µM
